Experimental data pooled from the literature.
Compare with care: the assays were run in different laboratories. Values joined by “and” are separate records of one study, mostly repeats; a detail may differ. Numbers after ± are the reported error.
Cell line: MDA-MB-231

COc1c(C)c(O)c(C(=O)C=Cc2ccccc2)c(OC)c1C
selectivity index (reference: CL over MDA-MB-231): 0.97

CC(C)c1ccc(N(C)c2ccc3c(c2)OCC[C@H]3CNc2cnccc2C(=O)O)cc1
S-phase cells (flow cytometry, propidium iodide; 0.01 µM, 24 h): 33%

COc1ccccc1-c1ccncc1C(=O)Nc1nnc(OCc2ccc(Cl)cc2)s1
colony count (1.5 µM): 34.5 and 23

Cc1nc2c(F)cc(-c3nc(Nc4ccc(CNC(=O)CCCCCC(=O)NO)cc4)ncc3F)cc2n1C(C)C
inhibition (cell growth or viability, CCK-8; 0.3 µM, 48 h): 96.2%

COc1cccc(CNC[C@](O)(COCc2ccccc2)[C@@H]2CC[C@@H](C)C[C@H]2OCc2ccccc2)c1
inhibition (cell growth or viability, MTT; 10 µM, 72 h): 96.5%

CC(=O)[O][Pd][c]1cc(C)ccc1N1N=C(C)C(C)(C)C1=O.CC(=O)[O][Pd][c]1cc(C)ccc1N1N=C(C)C(C)(C)C1=O
late apoptotic cells (annexin V/PI flow cytometry; 25 µM, 24 h): 8.48 ± 0.52%

C[C@@H]1CC[C@@H]([C@@](O)(CNCc2ccccc2F)COCc2ccccc2)[C@H](OCc2ccccc2)C1
inhibition (cell growth or viability, MTT; 30 µM, 72 h): 92.5%

Oc1cccc(-c2cccc(O)n2)n1.[Cl-].[Cl-].[Ru+2].c1ccc(-c2ccnc3c2ccc2c(-c4ccccc4)ccnc23)cc1.c1ccc(-c2ccnc3c2ccc2c(-c4ccccc4)ccnc23)cc1
phototoxicity index (cell viability; reference: dark EC50 over light EC50): 40

C[C@@H]1CC[C@@H]([C@@](O)(COCc2ccccc2)Cn2cnc3ccccc32)[C@H](OCc2ccccc2)C1
inhibition (cell growth or viability, MTT; 10 µM, 72 h): 30.8%

CC(=O)OCC1=C2C(C)=CC(C)=[N+]2[B-](C)(C)n2c(C)cc(C)c21
EC50 (cell viability, MTT; 72 h, dark): > 50 µM

CC(=O)[O][Pd][c]1ccccc1-n1nc(C)cc1C.CC(=O)[O][Pd][c]1ccccc1-n1nc(C)cc1C
G1 phase cells (PI flow cytometry; 25 µM, 24 h): 50 ± 2.97%

O=C(/C=C/c1ccccc1)Nc1cc(-c2ccnc(N3CCC(CO)CC3)c2)ccn1
inhibition (cell growth or viability, MTT; 5 µM): 77.4%

CCCNC(=O)[C@H]1O[C@@H]1C(=O)N[C@H](C(=O)N1CCC[C@H]1C(=O)OCC1=C2C(C)=CC(C)=[N+]2[B-](CC)(CC)n2c(C)cc(C)c21)[C@@H](C)CC
EC50 (cell viability, MTT; 72 h, dark): > 50 µM

CC[C@H](C)/C=C/C=C/C=C/C(O)=C/C(=O)C(F)(Cl)Cl
cell migration (wound healing; 1 µM, 24 h; reference: DMSO): 90 ± 18%

Cc1cc(-c2ccc(S(=O)(=O)C3CC(C(=O)NC4(C#N)CC4)N(C(=O)C4(C(F)(F)F)CC4)C3)c(C(F)(F)F)c2)ccn1 (stereo not shown)
cleaved PARP1 level (Western blot; concentration not given, together with: ionizing radiation 10 Gy): increased

CCc1c(C)c2ccc(OC(C)C)c(C)c2oc1=O
viability (cell growth or viability, MTT; 31.25 µg/mL): 88.8%

Cc1nc2c(F)cc(-c3nc(Nc4ccc(CNC(=O)CCCC(=O)NO)cc4)ncc3F)cc2n1C(C)C
inhibition (cell growth or viability, CCK-8; 0.3 µM, 48 h): 77.8%

C[C@@H]1CC[C@@H]([C@](O)(CNCc2ccc(F)cc2)COCc2ccccc2)[C@H](OCc2ccccc2)C1
inhibition (cell growth or viability, MTT; 30 µM, 72 h): 94.4%

CCCNC(=O)[C@H]1O[C@@H]1C(=O)N[C@H](C(=O)N1CCC[C@H]1C(=O)OCC1=C2C(C)=CC(C)=[N+]2[B-](F)(F)n2c(C)cc(C)c21)[C@@H](C)CC
EC50 (cell viability, MTT; 72 h, dark): > 50 µM

CC(=O)OC[C@H]1O[C@@H](n2cc(CSc3nc4ccccc4n3Cc3cn([C@@H]4O[C@H](COC(C)=O)[C@@H](OC(C)=O)C(OC(C)=O)[C@H]4OC(C)=O)nn3)nn2)[C@H](OC(C)=O)C(OC(C)=O)[C@@H]1OC(C)=O (stereo in doubt)
cytotoxicity (MTT; 31.3 ppm): 88.6%

CCCNC(=O)[C@H]1O[C@@H]1C(=O)N[C@H](C(=O)N1CCC[C@H]1C(=O)OCC1=C2C(C)=CC(C)=[N+]2[B-](C)(C)n2c(C)cc(C)c21)[C@@H](C)CC
EC50 (cell viability, MTT; concentration not given, 4 h, irradiated 15 min up to 470 nm): 2.5 ± 0.22 µM

C[C@H]1O[C@@H]2C3=C(O[C@]2(C)[C@@]1(O)C=O)C(=O)c1c(O)cccc1C3=O
EC50 (cell growth or viability, MTT; 48 h): 7.84 µM

COc1ccc(COC[C@](O)(CNCc2ccc(F)cc2)[C@@H]2CC[C@@H](C)C[C@H]2OCc2ccc(OC)cc2)cc1
inhibition (cell growth or viability, MTT; 30 µM, 72 h): 100%

CCCc1cc2cc(-n3nc(C(F)(F)F)c4c3CC(C)(C)CC4=O)cc(N3CCC(O)CC3)c2c(=O)[nH]1
c-Src level (Western blot; concentration not given, 24 h): no effect

COc1ccccc1CNC[C@](O)(COCc1ccccc1)[C@@H]1CC[C@@H](C)C[C@H]1OCc1ccccc1
inhibition (cell growth or viability, MTT; 30 µM, 72 h): 96.8%

CCCc1cc2cc(-n3nc(CC)c4c3CC(C)(C)CC4=O)cc(N3CCC(O)CC3)c2c(=O)[nH]1
Hsp90α and Hsp90β levels (Western blot; concentration not given, 24 h): no effect

COc1cccc2c1cc1c3c(cc4c(c32)OCO4)[C@@H]2c3c4c5c(cc6c(c5c5cccc(OC)c35)OCO6)CCN4[C@@H]2N1C (racemic)
inhibition (cytotoxicity, MTT; 50 µg/mL, 48 h): < 50%

CCN(C(=O)c1cc(F)ccc1Oc1nncnc1N1CCC2(C1)CN([C@H](CCCN(C)CCOC)C(C)C)C2)C(C)C
GI50 (cell growth or viability; 7 days): > 10 µM

O=c1c(-c2cnn(-c3ccccc3)c2)c(C(F)(F)F)oc2c(O)c(O)ccc12
EC50 (apoptosis, flow cytometry): > 100 µM

C[C@@H]1CC[C@@H]([C@@](O)(CNCc2cccc(F)c2)COCc2ccccc2)[C@H](OCc2ccccc2)C1
inhibition (cell growth or viability, MTT; 10 µM, 72 h): 93.7%

CC(=O)[O][Pd][c]1ccccc1N1N=C(C)C(C)(C)C1=O.CC(=O)[O][Pd][c]1ccccc1N1N=C(C)C(C)(C)C1=O
late apoptotic cells (annexin V/PI flow cytometry; 25 µM, 24 h): 9.43 ± 1.02%

Repeated from above:
CC(=O)OC[C@H]1O[C@@H](n2cc(CSc3nc4ccccc4n3Cc3cn([C@@H]4O[C@H](COC(C)=O)[C@@H](OC(C)=O)C(OC(C)=O)[C@H]4OC(C)=O)nn3)nn2)[C@H](OC(C)=O)C(OC(C)=O)[C@@H]1OC(C)=O (stereo in doubt)
cytotoxicity (MTT; 31.3 ppm): 88.6%

CCCNC(=O)[C@H]1O[C@@H]1C(=O)N[C@H](C(=O)N1CCC[C@H]1C(=O)OCC1=C2C(C)=CC(C)=[N+]2[B-](C)(C)n2c(C)cc(C)c21)[C@@H](C)CC
EC50 (cell viability, MTT; concentration not given, 4 h, irradiated 15 min up to 470 nm): 2.5 ± 0.22 µM

C[C@H]1O[C@@H]2C3=C(O[C@]2(C)[C@@]1(O)C=O)C(=O)c1c(O)cccc1C3=O
EC50 (cell growth or viability, MTT; 48 h): 7.84 µM

COc1ccc(COC[C@](O)(CNCc2ccc(F)cc2)[C@@H]2CC[C@@H](C)C[C@H]2OCc2ccc(OC)cc2)cc1
inhibition (cell growth or viability, MTT; 30 µM, 72 h): 100%

CCCc1cc2cc(-n3nc(C(F)(F)F)c4c3CC(C)(C)CC4=O)cc(N3CCC(O)CC3)c2c(=O)[nH]1
c-Src level (Western blot; concentration not given, 24 h): no effect
